Measured values collected from several papers.
Each line is one published result; not all experiments were run side by side. Numbers after ± are the reported error.

Compound | test | test system | conditions | tissue uptake [%ID/g]
NC12CNCCNCC(NCc3ccc(CNC(=O)CCCC(=O)NCc4ccc(-c5nncnn5)cc4)cc3)(CNCCNC1)CNCCNC2.[64Cu+2] | – | athymic nude mice, SW1222 xenograft, kidney | 24 h post-injection, 24 h pretargeting interval, together with: huA33-TCO pretargeting | 2 ± 0.24
O=C([O-])c1cccc(CN(CCN(Cc2cn(Cc3ccccc3)nn2)Cc2cccc(C(=O)[O-])n2)Cc2cn(Cc3ccccc3)nn2)n1.[64Cu+2] | – | healthy athymic nude mice, small intestine | intravenous, 15 min | 63.7
CC(C)[C@H](NC(=O)[C@@H]1CCCN1C(=O)[C@H](CCCNC(=N)N)NC(=O)[C@H](CS)NC(=O)[C@H](Cc1c[nH]c2ccccc12)NC(=O)[C@H](CCCNC(=N)N)NC(=O)[C@@H](Cc1ccccc1)NC(=O)[C@H](Cc1c[nH]cn1)NC(=O)[C@H](CCC(=O)O)NC(=O)[C@H](CS)NC(=O)[C@H](CS)NC(=O)[C@@H]1CC(=O)N[C@@H](CCCNC(=N)N)C(=O)NCC(=O)N[C@@H](CC(=O)O)C(=O)N[C@H](Cc2ccc(O)cc2)C(=O)N1)C(N)=O [technetium-99m labelled] | – | female mice, B16/F1 melanoma, kidneys | intravenous, dose not given, 2 h, together with: 10 µg NDP-MSH co-injected | 13.3 ± 1.68
CCCC[C@@H]1NC(=O)[C@@H](NC(=O)[C@H](CCC(=O)O)NC(=O)CNC(=O)CN2CCN(CC(=O)O)CCN(CC(=O)O)CCN(CC(=O)O)CC2)CCCCNC(=O)C[C@@H](C(N)=O)NC(=O)[C@H](C(C)C)NC(=O)[C@@H]2CCCN2C(=O)[C@H](CCCNC(=N)N)NC(=O)CNC(=O)[C@H](Cc2c[nH]c3ccccc23)NC(=O)[C@H](CCCNC(=N)N)NC(=O)[C@@H](Cc2ccccc2)NC(=O)[C@H](Cc2c[nH]cn2)NC(=O)[C@H](CCC(=O)O)NC1=O [gallium-67 labelled] | – | C57 mice, B16/F10 lung metastatic melanoma, heart | intravenous, 0.037 MBq, 4 h | 0.12 ± 0.08
CCCC[C@H](NC(=O)CNC(=O)CNC(=O)CN1CCN(CC(=O)O)CCN(CC(=O)O)CC1)C(=O)N[C@H]1CC(=O)NCCCC[C@@H](C(N)=O)NC(=O)[C@H](Cc2c[nH]c3ccccc23)NC(=O)[C@H](CCCNC(=N)N)NC(=O)[C@@H](Cc2ccccc2)NC(=O)[C@H](Cc2c[nH]cn2)NC1=O [gallium-67 labelled] | – | female C57 mice, B16/F1 melanoma, heart | intravenous, 0.037 MBq, 4 h | 0.39 ± 0.17
N=C(N)NCCC[C@@H]1NC(=O)[C@H](CCCCNC(=O)CON=C[C@H](F)[C@@H](O)[C@H](O)[C@H](O)CO)NC(=O)[C@@H](Cc2ccc(O)cc2)NC(=O)[C@H](CC(=O)O)NC(=O)CNC1=O [fluorine-18 labelled] | – | nude mice U-87 MG tumour, spleen | intravenous, 0.5 h | 0.19 ± 0.16
O=C([O-])CN1CCN(CC(=O)[O-])CCN(CC(=O)NCCc2ccc3c(c2)C2C=CCC2C(c2cc4c(cc2Br)OCO4)N3)CCN(CC(=O)[O-])CC1.[111In+3] (centres unmarked) | – | mice with Hec50 tumour xenograft, pituitary | 1 h | 0.6 ± 0.05
CN1C(=O)[C@@H](Cc2ccc(O)c(I)c2)NC(=O)CNC(=O)[C@H](Cc2ccc3ccccc3c2)NC(=O)[C@H](CCCNC(=N)N)NC(=O)[C@H]1CCCNC(=O)c1ccc(CNC(=O)CN2CCN(CC(=O)O)CCN(CC(=O)O)CCN(CC(=O)O)CC2)cc1 [lutetium-177 labelled] | item: 177Lu radioactivity | female CB-17 SCID mice, Daudi xenograft, muscle | intravenous, 0.16 nmol per mouse, 48 h | 0.04 ± 0.005
CCCC[C@H](NC(=O)CN1CCC(NC(=O)CN2CCN(CC(=O)O)CCN(CC(=O)O)CCN(CC(=O)O)CC2)CC1)C(=O)N[C@H]1CC(=O)NCCCC[C@@H](C(N)=O)NC(=O)[C@H](Cc2c[nH]c3ccccc23)NC(=O)[C@H](CCCNC(=N)N)NC(=O)[C@@H](Cc2ccccc2)NC(=O)[C@H](Cc2c[nH]cn2)NC1=O [gallium-68 labelled] | – | C57BL/6J mice male B16-F10 tumour, intestine | 2 h post injection, unblocked | 0.4 ± 0.1
CCCC[C@H](NC(=O)CNC(=O)CNC(=O)CN1CCN(CC(=O)O)CCN(CC(=O)O)CCN(CC(=O)O)CC1)C(=O)N[C@H]1CC(=O)NCCCC[C@@H](C(N)=O)NC(=O)[C@H](Cc2c[nH]c3ccccc23)NC(=O)[C@H](CCCNC(=N)N)NC(=O)[C@@H](Cc2ccccc2)NC(=O)[C@H](Cc2c[nH]cn2)NC1=O [gallium-67 labelled] | – | female C57 mice, B16/F1 melanoma, blood | intravenous, 0.037 MBq, 2 h | 0.97 ± 0.91
O=C([O-])CN1CCN(CC(=O)[O-])CCN(CC(=O)[O-])CCN(CC(=O)[O-])CC1.[64Cu+2] | – | healthy athymic nude mice, skin | intravenous, 15 min | 1.76

For quick reference, copied from above:
Compound | test | test system | conditions | tissue uptake [%ID/g]
O=C([O-])CN1CCN(CC(=O)[O-])CCN(CC(=O)[O-])CCN(CC(=O)[O-])CC1.[64Cu+2] | – | healthy athymic nude mice, skin | intravenous, 15 min | 1.76
